Measurements gathered from unrelated publications.
Each line is one published result; not all experiments were run side by side. Several values in a cell are separate wells, animals, samples, runs or records. ± marks the error that the study gave.
cofactor-independent phosphoglycerate mutase W431C: cofactor-independent phosphoglycerate mutase (Metamycoplasma orale, UniProt A0A448ZXM1, W431C)
Cnr1: Cannabinoid receptor 1 (Cnr1, Mus musculus, UniProt P47746)
Chain of UniProt P0A725 (whole entry, looked up): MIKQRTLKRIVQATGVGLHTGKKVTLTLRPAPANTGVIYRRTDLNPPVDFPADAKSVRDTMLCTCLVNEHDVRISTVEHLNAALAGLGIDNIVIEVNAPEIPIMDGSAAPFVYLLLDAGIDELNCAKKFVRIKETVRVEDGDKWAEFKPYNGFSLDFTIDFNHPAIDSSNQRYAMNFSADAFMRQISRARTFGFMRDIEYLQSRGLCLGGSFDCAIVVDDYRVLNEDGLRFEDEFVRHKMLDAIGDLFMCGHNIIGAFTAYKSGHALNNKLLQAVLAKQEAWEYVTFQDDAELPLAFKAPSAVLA
Chain of UniProt P47746 (whole entry, looked up): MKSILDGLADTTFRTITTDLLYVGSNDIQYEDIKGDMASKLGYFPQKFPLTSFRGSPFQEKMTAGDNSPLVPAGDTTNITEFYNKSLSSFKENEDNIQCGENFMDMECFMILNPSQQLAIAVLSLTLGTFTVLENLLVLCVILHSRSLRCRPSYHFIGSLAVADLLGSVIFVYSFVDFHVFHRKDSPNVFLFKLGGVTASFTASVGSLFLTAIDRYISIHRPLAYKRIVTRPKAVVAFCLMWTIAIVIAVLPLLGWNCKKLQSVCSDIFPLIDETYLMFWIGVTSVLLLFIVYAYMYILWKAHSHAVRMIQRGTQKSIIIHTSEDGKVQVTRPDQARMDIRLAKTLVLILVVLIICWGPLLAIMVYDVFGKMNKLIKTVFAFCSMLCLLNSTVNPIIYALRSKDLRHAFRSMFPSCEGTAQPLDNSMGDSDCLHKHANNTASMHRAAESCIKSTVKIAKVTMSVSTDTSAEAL
Chain of UniProt P05649 (whole entry, looked up): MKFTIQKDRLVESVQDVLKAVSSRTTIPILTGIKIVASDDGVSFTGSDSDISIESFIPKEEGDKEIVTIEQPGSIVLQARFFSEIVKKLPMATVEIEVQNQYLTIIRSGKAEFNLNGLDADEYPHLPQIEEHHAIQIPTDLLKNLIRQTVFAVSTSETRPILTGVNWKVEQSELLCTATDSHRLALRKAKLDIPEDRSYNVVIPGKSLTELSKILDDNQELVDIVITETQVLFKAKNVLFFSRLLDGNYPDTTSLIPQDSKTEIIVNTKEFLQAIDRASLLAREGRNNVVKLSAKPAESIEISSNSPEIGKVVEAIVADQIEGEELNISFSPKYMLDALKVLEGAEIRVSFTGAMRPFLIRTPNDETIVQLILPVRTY
Chain of UniProt Q09472 (whole entry, looked up): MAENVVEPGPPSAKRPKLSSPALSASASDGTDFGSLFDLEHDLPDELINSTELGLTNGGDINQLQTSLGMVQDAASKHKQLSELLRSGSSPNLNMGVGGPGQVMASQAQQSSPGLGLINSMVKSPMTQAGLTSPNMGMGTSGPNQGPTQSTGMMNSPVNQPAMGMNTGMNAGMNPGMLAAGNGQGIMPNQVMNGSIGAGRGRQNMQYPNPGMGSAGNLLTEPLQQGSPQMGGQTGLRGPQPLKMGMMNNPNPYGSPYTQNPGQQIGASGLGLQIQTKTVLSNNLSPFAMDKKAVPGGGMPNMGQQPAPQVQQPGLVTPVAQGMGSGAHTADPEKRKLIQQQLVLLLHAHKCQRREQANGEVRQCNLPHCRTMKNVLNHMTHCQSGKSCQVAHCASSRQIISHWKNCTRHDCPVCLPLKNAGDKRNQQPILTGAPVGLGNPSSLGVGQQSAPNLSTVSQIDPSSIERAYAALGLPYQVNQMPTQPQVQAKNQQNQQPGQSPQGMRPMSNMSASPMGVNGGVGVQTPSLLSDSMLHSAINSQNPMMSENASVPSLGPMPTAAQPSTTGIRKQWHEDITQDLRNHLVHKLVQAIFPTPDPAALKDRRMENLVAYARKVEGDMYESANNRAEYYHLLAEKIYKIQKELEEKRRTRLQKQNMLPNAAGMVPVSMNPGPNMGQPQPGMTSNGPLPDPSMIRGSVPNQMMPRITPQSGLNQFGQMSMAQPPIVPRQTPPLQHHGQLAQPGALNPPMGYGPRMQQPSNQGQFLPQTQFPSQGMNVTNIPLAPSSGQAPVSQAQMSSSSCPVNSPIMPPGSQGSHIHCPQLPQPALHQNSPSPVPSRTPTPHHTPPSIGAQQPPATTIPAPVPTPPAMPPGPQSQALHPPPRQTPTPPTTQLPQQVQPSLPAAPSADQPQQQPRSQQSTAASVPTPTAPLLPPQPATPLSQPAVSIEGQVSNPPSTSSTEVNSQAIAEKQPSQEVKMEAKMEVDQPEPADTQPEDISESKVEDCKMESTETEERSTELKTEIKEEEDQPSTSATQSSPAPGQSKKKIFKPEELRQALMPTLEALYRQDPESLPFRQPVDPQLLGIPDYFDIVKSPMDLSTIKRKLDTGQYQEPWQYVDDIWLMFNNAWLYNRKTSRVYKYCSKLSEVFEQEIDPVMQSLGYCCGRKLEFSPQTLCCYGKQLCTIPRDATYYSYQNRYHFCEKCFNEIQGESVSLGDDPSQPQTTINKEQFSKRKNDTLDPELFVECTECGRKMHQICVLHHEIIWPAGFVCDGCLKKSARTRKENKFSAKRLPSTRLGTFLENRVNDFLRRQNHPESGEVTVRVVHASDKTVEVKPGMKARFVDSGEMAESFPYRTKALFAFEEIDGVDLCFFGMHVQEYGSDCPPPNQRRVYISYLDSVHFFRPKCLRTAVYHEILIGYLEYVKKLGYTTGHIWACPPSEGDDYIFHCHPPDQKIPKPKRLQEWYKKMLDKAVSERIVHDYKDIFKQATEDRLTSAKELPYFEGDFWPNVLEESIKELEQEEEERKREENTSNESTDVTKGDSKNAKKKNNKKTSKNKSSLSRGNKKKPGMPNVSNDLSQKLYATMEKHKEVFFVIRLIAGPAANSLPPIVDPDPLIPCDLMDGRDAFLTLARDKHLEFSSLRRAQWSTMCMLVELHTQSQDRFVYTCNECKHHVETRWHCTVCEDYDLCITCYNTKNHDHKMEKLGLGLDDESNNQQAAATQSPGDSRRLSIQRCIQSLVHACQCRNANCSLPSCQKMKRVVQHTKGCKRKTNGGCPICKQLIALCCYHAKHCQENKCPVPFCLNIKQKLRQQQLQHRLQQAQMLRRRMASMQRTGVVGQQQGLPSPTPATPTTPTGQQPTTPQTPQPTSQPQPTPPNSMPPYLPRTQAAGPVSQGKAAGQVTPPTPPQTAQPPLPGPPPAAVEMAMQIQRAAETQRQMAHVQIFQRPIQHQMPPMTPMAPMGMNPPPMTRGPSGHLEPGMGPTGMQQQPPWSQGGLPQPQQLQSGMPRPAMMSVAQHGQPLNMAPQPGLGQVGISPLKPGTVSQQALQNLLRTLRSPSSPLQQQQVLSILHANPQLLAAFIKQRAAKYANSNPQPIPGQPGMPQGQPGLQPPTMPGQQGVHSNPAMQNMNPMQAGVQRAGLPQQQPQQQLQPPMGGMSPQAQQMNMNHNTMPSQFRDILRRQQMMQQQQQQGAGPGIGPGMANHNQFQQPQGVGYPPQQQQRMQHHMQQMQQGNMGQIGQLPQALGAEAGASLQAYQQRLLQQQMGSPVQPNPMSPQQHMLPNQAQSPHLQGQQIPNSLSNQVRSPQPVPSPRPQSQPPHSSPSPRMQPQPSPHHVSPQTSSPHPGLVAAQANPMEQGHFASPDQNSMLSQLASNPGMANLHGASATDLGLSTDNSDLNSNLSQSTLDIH
Chain of UniProt Q16820 (whole entry, looked up): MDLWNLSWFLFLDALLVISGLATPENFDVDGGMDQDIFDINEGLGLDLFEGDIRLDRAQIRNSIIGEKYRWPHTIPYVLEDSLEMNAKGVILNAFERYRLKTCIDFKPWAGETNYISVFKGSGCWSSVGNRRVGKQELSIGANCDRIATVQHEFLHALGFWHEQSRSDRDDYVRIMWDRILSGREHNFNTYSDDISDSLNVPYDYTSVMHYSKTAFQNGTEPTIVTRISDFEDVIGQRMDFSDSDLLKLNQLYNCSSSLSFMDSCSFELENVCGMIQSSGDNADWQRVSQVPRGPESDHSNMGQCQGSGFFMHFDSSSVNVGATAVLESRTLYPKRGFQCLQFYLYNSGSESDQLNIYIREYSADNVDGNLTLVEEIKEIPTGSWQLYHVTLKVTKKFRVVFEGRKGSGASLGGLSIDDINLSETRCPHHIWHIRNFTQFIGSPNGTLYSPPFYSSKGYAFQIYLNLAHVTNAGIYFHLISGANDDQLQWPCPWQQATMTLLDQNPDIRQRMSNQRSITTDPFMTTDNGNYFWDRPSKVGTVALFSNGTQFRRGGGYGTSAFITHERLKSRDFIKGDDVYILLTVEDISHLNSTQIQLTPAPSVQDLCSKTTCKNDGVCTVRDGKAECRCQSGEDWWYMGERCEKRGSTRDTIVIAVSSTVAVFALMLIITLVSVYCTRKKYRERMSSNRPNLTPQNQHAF
Chain of UniProt P14780 (whole entry, looked up): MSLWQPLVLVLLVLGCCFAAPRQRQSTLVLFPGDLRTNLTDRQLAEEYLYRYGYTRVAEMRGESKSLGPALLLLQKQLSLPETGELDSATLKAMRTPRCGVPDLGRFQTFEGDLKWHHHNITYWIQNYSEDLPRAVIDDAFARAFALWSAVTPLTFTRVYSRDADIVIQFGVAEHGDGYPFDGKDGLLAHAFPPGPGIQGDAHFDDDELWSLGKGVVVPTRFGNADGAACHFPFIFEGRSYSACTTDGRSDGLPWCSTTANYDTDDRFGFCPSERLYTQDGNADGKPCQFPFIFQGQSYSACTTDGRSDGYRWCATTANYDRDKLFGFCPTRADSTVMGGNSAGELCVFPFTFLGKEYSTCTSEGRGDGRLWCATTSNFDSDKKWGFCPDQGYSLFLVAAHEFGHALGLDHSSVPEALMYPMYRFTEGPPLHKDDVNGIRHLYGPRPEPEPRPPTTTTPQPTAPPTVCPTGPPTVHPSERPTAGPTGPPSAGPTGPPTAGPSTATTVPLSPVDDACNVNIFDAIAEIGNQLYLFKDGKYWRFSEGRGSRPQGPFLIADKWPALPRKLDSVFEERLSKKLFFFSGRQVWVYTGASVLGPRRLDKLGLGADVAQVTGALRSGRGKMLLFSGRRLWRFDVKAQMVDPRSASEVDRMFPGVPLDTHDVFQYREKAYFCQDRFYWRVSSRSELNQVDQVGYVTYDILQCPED

COc1ccc(C[C@H]2C(=O)N[C@@H](CC(N)=O)C(=O)N[C@@H](CC(=O)O)C(=O)N[C@@H](CO)C(=O)NCC(=O)N[C@@H](Cc3c[nH]c4ccccc34)C(=O)N(C)[C@@H](Cc3ccc(O)cc3)C(=O)N[C@@H](CC(N)=O)C(=O)N[C@@H]([C@@H](C)O)C(=O)N(C)[C@@H](Cc3ccccc3)C(=O)N[C@H](C(N)=O)CSCC(=O)N[C@@H](Cc3ccc(O)cc3)C(=O)N2C)cc1 — AC50 (cofactor-independent phosphoglycerate mutase W431C; biochemical; Mycoplasma orale): 45700 nM
CC1=CC(C)=[N+]2C1=Cc1ccc(CCC(=O)NCCOCCOCCOCCOCC(=O)N[C@H](C(=O)N3C[C@H](O)C[C@H]3C(=O)NCc3ccc(-c4scnc4C)cc3)C(C)(C)C)n1[B-]2(F)F — Kd (von Hippel-Lindau disease tumor suppressor, with elongin B/C (VHL, Homo sapiens, UniProt P40337); binding, TR-FRET; 150 min, together with: BODIPY FL VH032): 3.01 nM
CCCCCn1cc(C(=O)c2ccc3ccccc3c2)c2ccccc21 — EC50 (Cannabinoid receptor 1 (CNR1, Homo sapiens, UniProt P21554, I267L/L193I/L359V); Gαi1 engagement, agonist, BRET): 81.3 nM
CC(C)[C@@H]1NC(=O)[C@H](CCCNC(=N)N)NC(=O)[C@H](Cc2ccc(O)cc2)NC(=O)[C@H](CO)NC(=O)[C@H](Cc2ccc(O)cc2)NC(=O)[C@H](CC(N)=O)NC(=O)CNC(=O)[C@H](Cc2ccc(O)cc2)NC(=O)[C@H](Cc2ccccc2)NC(=O)[C@H](CC(=O)O)NC(=O)[C@H](Cc2ccc(O)cc2)NC(=O)[C@H](Cc2ccccc2)NC(=O)[C@H](Cc2ccc(O)cc2)NC(=O)[C@H](Cc2ccc(O)cc2)NC(=O)CSC[C@@H](C(N)=O)NC(=O)[C@@H]2CCCN2C1=O — AC50 (cofactor-independent phosphoglycerate mutase W431C; biochemical; Mycoplasma orale): 17800 nM
CC(=O)N[C@@H](CCCNC(=N)N)C(=O)N[C@@H](Cc1ccc(O)cc1)C(=O)N[C@@H](CCCN/C(N)=N/C(=O)NCCCCN)C(=O)N[C@@H](CC(C)C)C(=O)N[C@@H](CCCNC(=N)N)C(=O)N[C@@H](Cc1ccc(O)cc1)C(N)=O — Ki (Neuropeptide Y receptor type 5 (NPY5R, Homo sapiens, UniProt Q15761); ligand displacement, radioligand): > 5000 nM
C[C@@](O)(C(F)F)[C@H](NC(=O)c1ccc(C#CC#CC2CC2)cc1)C(=O)NO — Ki (UDP-3-O-acyl-N-acetylglucosamine deacetylase (Escherichia coli K-12, UniProt P0A725); enzyme activity, slow-binding competitive inhibitor, time-dependent inhibition): ~0.0089 nM and 0.0089 nM
CC(C)[C@@H]1NC(=O)[C@H](CCC(N)=O)NC(=O)[C@@H](Cc2ccc(O)cc2)NC(=O)CSC[C@@H](C(N)=O)NC(=O)[C@H](CC(=O)O)NC(=O)[C@H](CCC(=O)O)NC(=O)[C@H](Cc2c[nH]c3ccccc23)NC(=O)[C@@H]2CCCN2C(=O)[C@H](CO)NC(=O)[C@H](C)NC(=O)[C@H](Cc2c[nH]c3ccccc23)NC(=O)[C@H](Cc2c[nH]c3ccccc23)NC(=O)[C@H](C(C)C)NC(=O)[C@H]([C@@H](C)O)NC1=O — AC50 (2,3-bisphosphoglycerate-independent phosphoglycerate mutase (gpmI, Staphylococcus aureus, UniProt Q6GIL5); enzyme activity): 39.8 nM
NCCCC[C@H](NC(=O)[C@H](CC(N)=O)NC(=O)[C@H](CCCCNC(=O)[C@H](Cc1ccc(B(O)O)cc1)NC(=O)[C@H](Cc1ccc(O)cc1)NC(=O)[C@@H](N)Cc1ccc(B(O)O)cc1)NC(=O)[C@H](Cc1ccc(B(O)O)cc1)NC(=O)[C@H](Cc1ccc(O)cc1)NC(=O)[C@@H](N)Cc1ccc(B(O)O)cc1)C(=O)N[C@@H](CO)C(=O)N[C@@H](Cc1ccc(O)cc1)C(N)=O — Kd (HIV-1 RRE IIB RNA; binding, dot blot; 4 h, pH 7.0, room temperature): 8700 ± 2200 nM
COC(=O)c1ccc(Cn2cc(C=C3C(=NO)C4CCN3CC4)c3ccccc32)cc1 — Ki (Cnr1; ligand displacement, radioligand; cell membranes): 336 nM
CCS(=O)(=O)Nc1cc(-c2cn(C)c3c(=O)[nH]ccc23)cc2c1ccn2C(C)(c1ccccn1)c1ccccn1 — IC50 (Histone acetyltransferase p300 (EP300, Homo sapiens, UniProt Q09472); cell-free assay): 28 nM
O=P(O)(O)Oc1ccc(Oc2ccc(S(=O)(=O)CC3CS3)cc2)cc1 (racemic) — Ki (Matrix metalloproteinase-9 (MMP9, Homo sapiens, UniProt P14780); enzyme activity, inhibitor): 35800 nM
CC(C)[C@@H]1NC(=O)[C@H](CCC(N)=O)NC(=O)[C@@H](Cc2ccc(O)cc2)NC(=O)CSC[C@@H](C(N)=O)NC(=O)[C@H](CC(=O)O)NC(=O)[C@H](CCC(=O)O)NC(=O)[C@H](Cc2c[nH]c3ccccc23)NC(=O)[C@@H]2CCCN2C(=O)[C@H](CO)N(C)C(=O)[C@H](C)NC(=O)[C@H](Cc2c[nH]c3ccccc23)NC(=O)[C@H](Cc2c[nH]c3ccccc23)NC(=O)[C@H](C(C)C)NC(=O)[C@H]([C@@H](C)O)NC1=O — AC50 (cofactor-independent phosphoglycerate mutase W431C; biochemical; Mycoplasma orale): 2.63 nM
O=C1C(=Cc2cn(Cc3ccc(F)cc3)c3ccccc23)N2CCC1CC2 — IC50 (Cnr1; cAMP level, agonist; Neuro2A; together with: 10 µM forskolin): 243 ± 57.5 nM
CC(C)C[C@H](NC(=O)[C@H](Cc1ccccc1)NC(=O)[C@H](CC(C)C)NC(=O)[C@H](CO)NC(=O)[C@H](CC(C)C)NC(=O)[C@H](CCC(N)=O)NC(=O)[C@H](CC(=O)O)NC(=O)[C@H](CC(=O)O)NC(=O)CCCCCNC(=O)c1ccc2c(c1)C(=O)OC21c2ccc(O)cc2Oc2cc(O)ccc21)C(=O)N[C@@H](CC(=O)O)C(=O)N[C@@H](CCC(=O)O)C(N)=O — Kd (Beta sliding clamp (dnaN, Bacillus subtilis, UniProt P05649); pH 7.5): 7200 ± 2200 nM
CN1C(=O)[C@H](CCC(=O)O)NC(=O)[C@H](Cc2ccc(O)cc2)NC(=O)[C@H](CCCNC(=N)N)NC(=O)[C@@H](Cc2ccc(O)cc2)NC(=O)CSC[C@@H](C(N)=O)NC(=O)[C@H](CCCCN)NC(=O)[C@@H]2CCCN2C(=O)[C@H](CS)NC(=O)[C@H](CCC(=O)O)NC(=O)[C@H](Cc2ccc(O)cc2)N(C)C(=O)[C@H](CCCCN)NC(=O)[C@H](Cc2ccc(O)cc2)NC(=O)[C@@H]1Cc1ccc(O)cc1 — AC50 (ipgm-1 (Caenorhabditis elegans, UniProt G5EFZ1); enzyme activity): 3980 nM
O=C(Cc1c(-c2ccccc2)n[nH]c1-c1ccccc1)NO — Ki (Meprin A subunit beta (MEP1B, Homo sapiens, UniProt Q16820); enzyme activity, inhibitor): 116 nM

For quick reference, copied from above:
CC1=CC(C)=[N+]2C1=Cc1ccc(CCC(=O)NCCOCCOCCOCCOCC(=O)N[C@H](C(=O)N3C[C@H](O)C[C@H]3C(=O)NCc3ccc(-c4scnc4C)cc3)C(C)(C)C)n1[B-]2(F)F — Kd (von Hippel-Lindau disease tumor suppressor, with elongin B/C (VHL, Homo sapiens, UniProt P40337); binding, TR-FRET; 150 min, together with: BODIPY FL VH032): 3.01 nM
CCCCCn1cc(C(=O)c2ccc3ccccc3c2)c2ccccc21 — EC50 (Cannabinoid receptor 1 (CNR1, Homo sapiens, UniProt P21554, I267L/L193I/L359V); Gαi1 engagement, agonist, BRET): 81.3 nM
